Measured values collected from several papers.
Every numbered part comes from another study and shows a few of its results, in no order. Changes are numbered by the printed parent chain.

Block 1
Target: ABI1, truncated, D143A, DHFR fusion (Arabidopsis thaliana)
Method: DHFR PCA, deep sequencing
Matrix: yeast
Setting: methotrexate growth selection, single substitutions
With: (+)-ABA 4.8 µM
Relative to: wild-type fitted maximum
Direction: higher = stronger binding
Parent: PYL1, truncated, DHFR fusion (Arabidopsis thaliana); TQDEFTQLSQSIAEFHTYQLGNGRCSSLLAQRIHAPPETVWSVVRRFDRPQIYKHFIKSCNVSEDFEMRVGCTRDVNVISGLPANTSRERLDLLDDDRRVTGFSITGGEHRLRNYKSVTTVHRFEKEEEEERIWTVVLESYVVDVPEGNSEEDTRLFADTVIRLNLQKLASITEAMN
Substitution | relative binding score [%]
S9N | 69.5
I52G | 37.5
F66P | 22.1
T120S | 90.6
L156V | 75.2
S117F | -11.3
E127G | 82.5
C60G | 1.99
N114C | 6.41
E125R | 74.5
N22A | 78.3
H122S | 5.24
R88C | 68.4
H110S | 17.1
Y141S | -7.5
E4A | 63.9
E4I | 79.5
L112I | -18.4
F103N | -13.6
R90E | 25
L164Q | 70.4
D48W | 8.33

Block 2
Target: RNA binding protein fox-1 homolog 2, RRM domain, GST-SBP tag (RBFOX2, Homo sapiens, UniProt O43251-10, residues 100-194)
Method: RNA Bind-n-Seq
Form: RNA
Matrix: in vitro
Tested at: 365 nM
Setting: natural RNA segment, single round, ends assumed
Relative to: no-protein control
Direction: higher = stronger binding
Strand | RBNS enrichment (R)
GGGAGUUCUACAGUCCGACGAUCUAAGUGGAGUAUUUUAGUCUAAAGGCUUUUCAAAUUACUUGAAUUUUUUUAAAAAUUGAGGAGCUUUAUUUCUAUUUACCCUUCCAUUUUUGUAUAUCAAAUUUCCAUUGUGGAAUUCUCGGGUGCCAA | 0.666
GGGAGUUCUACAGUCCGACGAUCAGGAGUCCCAGCCGGAUGGCCACCUCUGCAACCAUCAUCCUGUCUUCAGCUCAGCGGCAGCCCCGAAAUUGUUAAGGCCCGUACUUUUCCUGCCACUUGGUCUGACCCUGUGGAAUUCUCGGGUGCCAA | 0.57
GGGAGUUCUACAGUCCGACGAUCCCCCGGGCACCUCCUGCAACCAUCUCUGGGCUCAGCACCUGAGGCGGGUUUCCUGGGUCCCCUCUCCAGCAAGCCUCCACCAGCAAGCUCGGCCCAGAGCUUCCCUUCCGUGGAAUUCUCGGGUGCCAA | 0.38
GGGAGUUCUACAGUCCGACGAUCCUAUGUUACACGUGAGAUUAAAACCAAUUUUUUCCCCAUUUUUUCUCCUUUUUUCUCUUGCUGCCCACAUUGUGCCUUUAUUUUAUGAGCCCCAGUUUUCUGGGCUUAGUUGGAAUUCUCGGGUGCCAA | 1.33
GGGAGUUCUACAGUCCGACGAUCUCUGCAUGAAGUAGGGACCCCACACUAGAUAACCCCUCUUGUAAAGUAUGAGCCCAUCUCACUGGGCUAUCUGACUCUCCACCCUCCUUGUUAGUCUCUGAGGAACAGUGUGGAAUUCUCGGGUGCCAA | 1.87
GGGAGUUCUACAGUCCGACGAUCCCCAUUAGUGGAGGAUAGUGCUUUUGAGCCAUCUAGGAAAGAUAUGGAUGAAGUUGAAGAGAAAUCUAAAGAUGUUAUAAACUUUACUGCCGAGAAACUUUCAGUAGAUGUGGAAUUCUCGGGUGCCAA | 0.505
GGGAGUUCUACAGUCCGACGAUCAAAUUUUAGCUUAUAUAUGACGGUAUAUUUACAAAAAGAGAAAGAGAAAAUCUGGUAUUUGCAAUGAUCUGUGCCUUCUUUUUACCACCCUCUUGAUUGGAGCUUUUGUGUGGAAUUCUCGGGUGCCAA | 0.615
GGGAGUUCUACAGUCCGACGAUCCAUCUUGCCUACCAUUGCAUGAAACAUUGGGGUUUCUUCAAAAUGUGUGUGUCAUACUUCUUUUGGGAGGGGGUUGUUUUCUUCUUUUAUGAAACUCCUACUGGAGCUCAUGGAAUUCUCGGGUGCCAA | 1.68
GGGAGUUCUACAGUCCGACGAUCUAAAGUGAAAAAGGAGAGAGACCCUUGAACCACUGGGCAGCCACCUCCUUUGCCCUAGACCAGCUCCUCUCCAAUCCUGAGGGCCCCUCCCCCAACCCAACUCGACCCUCUGGAAUUCUCGGGUGCCAA | 0.571
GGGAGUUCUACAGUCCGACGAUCUUUCCCCAGGCUAUGAAAAGGAAAGUGAGGGAGCGAUCAUAGUGCUGAUUAUGUCUUCACAGACUGGCUCAGGUUCUUCACGAAGAAGAUGGCCUUUGUGGGAUUUAAUUUGGAAUUCUCGGGUGCCAA | 0.574
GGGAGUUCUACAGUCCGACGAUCGCUUCUCUCUGCCUCAGUGUCCGGGUCUGUAAGGUGGGCAGUUGAUGAUUUGUGGCAUCUCAACCAAGGGCCCCUGUGUGUGUGUGUUUGUGUGUGUGUACACAUAUCUGUGGAAUUCUCGGGUGCCAA | 1.58
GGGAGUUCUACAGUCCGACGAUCUUACAACUCAUGUUUACUUUUUAAAAUGAUUUAGACUGAUUUUCAGCUUUUAUUUCAUUACAAUUAAAGAUGUCUCAUGUACUUGGAAAAGUGAGCAUAUUUUUUUUUGUUGGAAUUCUCGGGUGCCAA | 0.821

Block 3
Target: NFE2L2, bZIP domain (human)
Method: DHFR protein complementation
Matrix: yeast
Setting: single substitutions, most at no-binding floor
Relative to: wild-type JUN-FOS pair
Direction: higher = stronger binding
Parent: JUN, bZIP domain (human); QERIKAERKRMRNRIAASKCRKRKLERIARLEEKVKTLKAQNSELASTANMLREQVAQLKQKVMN; partner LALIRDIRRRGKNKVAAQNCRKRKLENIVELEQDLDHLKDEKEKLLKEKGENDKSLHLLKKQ
Substitution | binding fitness [natural log]
R53S | -1.53
T37P | -1.52
E44I | -1.53
E54A | -1.5
S47N | -1.51
K34T | -1.44
R53K | -1.14
T48Q | -1.58
L38N | -1.38
M51W | -1.44
R53L | -1.43
E44M | -1.23
V56Y | -1.47
S43M | -1.51
S47A | -1.46
A40Y | -1.5
A29Y | -1.36
K39V | -1.4
T37N | -1.3
K36S | -1.28
N42Y | -1.48
S43R | -1.46
Q55N | -1.48
N42D | -1.48

Block 4
Target: Interferon regulatory factor 5, full length, phosphomimetic (IRF5, Homo sapiens, UniProt Q13568-2, residues 1-514, K96S/S451D/S453D/S456D/S462D)
Method: protein-binding microarray
Form: double-stranded DNA, one strand shown
Matrix: in vitro
Tested at: 250 nM
Setting: 60-bp whole probe
With: salmon DNA 0.4 mg/ml
Relative to: random background probes
Direction: higher = stronger binding
All sequences stand within: GCCTAGCAC … GTCTTGATTCGCTTGACGCTGCTG
Strand | log fluorescence [z-score]
TTAGGTCTGGACACTGGGTTAGTGCTA | -0.472
GACGATCTCAGACTGGATACGTGCTAG | 0.144
GACGAACTGGACTTTCGGGACGTGCTA | 4.7
GACAGTTTCCTTTCCCTGACGTGCTAG | 2.03
TCATTTTTTTTAATTGAACTGTGCTAG | 0.951
GAATATATGTATATATGTGTGTGCTAG | 0.56
TCATCTTTCATTGCTGCACTGTGCTAG | 2
GACGGTATCGGTCTCTGGACGTGCTAG | 5.23
GACGATTCCAGTTTCAAGACGTGCTAG | 1.3
TTAGATTTCGAGACTGGATTAGTGCTA | 1.81
TTAGGTTCCCTTCTCCTTTAGTGCTAG | 0.545
TCATTTTTCTAGTCCAGACTGTGCTAG | 0.939
TTAGATCTGGGGTATCGATTAGTGCTA | 2.11
AAATCTAAAAAGTCTCTGGGAGTGCTA | 0.0462
TTATATATCAGTATCGATTAGTGCTAG | 7.72
CACGAACTGGGGTTTCGAGACGTGCTA | 0.917
TTAGGTTTTGACTATCGGTTAGTGCTA | 6.74
TTCACTTTCCAAAGCGTGAGGTGCTAG | 0.638
TTAGGTATCGGGTATCGGATAGTGCTA | 4.94
CTAGTTTTACTTTCTATGTCGTGCTAG | 5.1

Block 5
Target: CCNB2, cyclin fold, Cln2 fusion (human)
Method: yeast growth competition, sequencing
Matrix: yeast
Setting: weak parent motif
Relative to: not given
Direction: higher = stronger binding
Parent: PLK5 docking peptide (human); IFRKVGQRLLTQC; partner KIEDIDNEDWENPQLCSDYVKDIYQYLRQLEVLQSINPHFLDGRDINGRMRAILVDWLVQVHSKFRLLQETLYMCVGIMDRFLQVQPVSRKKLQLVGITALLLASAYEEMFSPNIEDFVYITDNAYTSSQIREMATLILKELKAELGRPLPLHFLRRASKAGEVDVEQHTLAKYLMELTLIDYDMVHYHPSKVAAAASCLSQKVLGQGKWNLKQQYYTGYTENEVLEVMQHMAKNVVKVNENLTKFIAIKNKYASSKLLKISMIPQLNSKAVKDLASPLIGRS
Substitution | normalised enrichment score
Q7A | 0.31
R8A | 0.348
K4A | -0.00315
Q12A | 1.04
I1A | 0.208
C13A | 0.657
F2A | 0.465

A few entries again (block 1):
Substitution | relative binding score [%]
N22A | 78.3
F66P | 22.1
N114C | 6.41
S117F | -11.3
L112I | -18.4
H110S | 17.1
E125R | 74.5
C60G | 1.99
